Assay results of several laboratories.
Every numbered part comes from another study and shows a few of its results, in no order. Positions count from the first letter of the parent shown.

Sample 1
Target: RNA binding protein fox-1 homolog 2, RRM domain, GST-SBP tag (RBFOX2, Homo sapiens, UniProt O43251-10, residues 100-194)
Method: RNA Bind-n-Seq
Molecule type: RNA
Sample: in vitro
Concentration: 365 nM
Notes: natural RNA segment, single round, ends assumed
Relative to: no-protein control
Direction: higher = stronger binding
Constant ends, left off below: GGGAGUUCUACAGUCCGACGAUC … UGGAAUUCUCGGGUGCCAA
Residues (chain): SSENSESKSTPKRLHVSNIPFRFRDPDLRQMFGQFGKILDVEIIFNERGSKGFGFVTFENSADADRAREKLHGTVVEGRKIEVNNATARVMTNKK
Strand | RBNS enrichment (R)
AAUUUAAUAAGUCUCAGGCAUUUCCAAUUGUAGACUAAAACCACUCUUAGCAUCUCCUCUAGUAUUUUCCAUGUAUCAGGACAGAGGUGUCUUAUGUAGGGAGGGGGCAA | 0.68
UCCAGAAGCCUUUGUAUUGGUUAAAAAUUAUUUUCCAUUGCAGAAGCAGCUGGACUAUGCAAAAAGUAUUUCUCUGUCAGUUCCCCACUCUAUACCAAGGAUAUUAUUAA | 1.12
GAAGAGAACCUUGUGCUGAGGUAAUGGCCUCCCACUGCCGCCUGAGUGCUGAAAUGAGCUUGAGGUGUUCUUCAAAGCCAGUGUCACUGUGUGGGUCACUGUGAGGUGAC | 0.371
UUACGGGCUAAAUCAAGAGCAGCUUAAUCCUGUUUACAAUGUGAGCUUUUUGUGCGUCUGUGAAAUGUUUUACAGUGUUUCUCAUCAUCUGUUUCCCAGCAAGGUCUUUU | 0.379
UCAGUCUGCAGUAUUGAGUUGUUUAAAGUAUAUGUGCAGUCUUGCUUACAAGGAGGGGUUACCAUGUAUCACACCUAAUCUUCCCAAUGUUUGGGAUAUUAAAACACAAA | 0.497
UGCCUCAUUGGGGAAGUUGGCCAGCUGGACUUCAGAGAGCUAAGACACAGCAUUUUCAAAGAUAGCCUGGGAGCACUGUCUCUGACCACCUGUCUUCCUCUGCACCGUGC | 0.579
UCCAGAUACUUCUCUGUGAAAGUGGCCUCUCUACAGGGUGCCGUUCUGUUUUUUCCCAGUAGUACAAGGCCAGUGUCCUGAGCAAUGGGACCAGUUCUCCACCUGCUCUG | 0.332
UAAUGAAAGAACGUUGCAAAGAUCAUCUGCAUUAUAAUGAGUUGAUGCUGUUCUCACUCCUCUCUUGGAAUUGUGCUGGCCCCUUAGUCUACAAUAAACUGUGCCAAUUA | 2.79

Sample 2
Target: Sal-like protein 4, full length isoform B (SALL4, Homo sapiens, UniProt Q9UJQ4-2, residues 1-616)
Method: universal PBM
Molecule type: double-stranded DNA, one strand shown
Sample: in vitro
Concentration: not given
Notes: 8-mer, flanks averaged, mean of replicates
Direction: higher = stronger binding
Strand | E-score
AGATTGAC | -0.0674
AATTCCAG | -0.0709
GAGCCGTA | -0.0159
ACTGGGCA | -0.173
CGCTTTTA | 0.157
ATGCCCTC | -0.00709
GAGAGACC | -0.246
ACGGATAT | 0.194
CCTACGGC | -0.284
CGACCTCG | -0.194
ACAAGGCT | -0.0172
ACTGGAAT | -0.0617
CTGTACAG | 0.192
ATCACGGA | 0.0993
GCGAGTAC | -0.00314
CAAATCGG | -0.0539
GCTTCGTA | -0.00105
TTCAAGAA | 0.279
AACGGTGG | -0.0586
GTATGGAC | 0.118
CACGTCCC | -0.177
CGTTAGGA | 0.0142
ATCTAAAA | 0.111
CTGGGCAC | -0.338
ACCGCCCA | -0.301

Sample 3
Target: CCNA2, cyclin fold, Cln2 fusion (human)
Method: yeast growth competition, sequencing
Sample: yeast
Notes: strong parent motif
Relative to: not given
Direction: higher = stronger binding
Starting sequence: PKN2 docking peptide (human); VSAVRKLDFSDTM; partner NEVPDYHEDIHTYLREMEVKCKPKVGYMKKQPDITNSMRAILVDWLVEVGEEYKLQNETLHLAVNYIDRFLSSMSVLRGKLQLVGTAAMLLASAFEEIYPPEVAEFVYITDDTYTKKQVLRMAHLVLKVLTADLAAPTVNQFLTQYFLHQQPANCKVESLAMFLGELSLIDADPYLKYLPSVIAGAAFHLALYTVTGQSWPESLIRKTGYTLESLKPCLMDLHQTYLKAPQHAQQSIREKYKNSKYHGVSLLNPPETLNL
Change | normalised enrichment score
VSASRKLDFSDTM [V4S] | 5.61
VSAVRLLDFSDTM [K6L] | 2.21
VSAVRKPDFSDTM [L7P] | 0.211
VSAVRKLDFHDTM [S10H] | 4.9
VSAVRKLDFSCTM [D11C] | 5.07
VSAVRKLDKSDTM [F9K] | 0.3
VSAVRCLDFSDTM [K6C] | 4.86
VSAVRKLDFSDSM [T12S] | 5.41
VSAVEKLDFSDTM [R5E] | -0.0883
VSAVRKLDISDTM [F9I] | 0.447
VSAGRKLDFSDTM [V4G] | 3.6
VSAVRKLDFSWTM [D11W] | 4.45
VIAVRKLDFSDTM [S2I] | 4.91
VSAVRKIDFSDTM [L7I] | 4.21
VSAVNKLDFSDTM [R5N] | 0.0653
VSAVRKLDFVDTM [S10V] | 4.3
VSAVRKLDFEDTM [S10E] | 5.11
VLAVRKLDFSDTM [S2L] | 4.71
VSAVRKLDFSDEM [T12E] | 5.31
VSAVRKLYFSDTM [D8Y] | 4.37
VSAVRTLDFSDTM [K6T] | 3.73
VSAVMKLDFSDTM [R5M] | 3.06
VSAVRKLDFSDDM [T12D] | 4.93
VSAVRDLDFSDTM [K6D] | -0.16
VSMVRKLDFSDTM [A3M] | 3.77

Sample 4
Target: Interferon regulatory factor 3, full length, phosphomimetic (IRF3, Homo sapiens, UniProt Q14653, residues 1-427, S386D/S396D/S398D/S402D/T404D/S405D)
Method: protein-binding microarray
Molecule type: double-stranded DNA, one strand shown
Sample: in vitro
Concentration: 2540 nM top
Notes: 60-bp whole probe
Added: salmon DNA 0.4 mg/ml
Relative to: random background probes
Direction: higher = stronger binding
Constant ends, left off below: GCCTAGCAC … GTCTTGATTCGCTTGACGCTGCTG
Construct (chain): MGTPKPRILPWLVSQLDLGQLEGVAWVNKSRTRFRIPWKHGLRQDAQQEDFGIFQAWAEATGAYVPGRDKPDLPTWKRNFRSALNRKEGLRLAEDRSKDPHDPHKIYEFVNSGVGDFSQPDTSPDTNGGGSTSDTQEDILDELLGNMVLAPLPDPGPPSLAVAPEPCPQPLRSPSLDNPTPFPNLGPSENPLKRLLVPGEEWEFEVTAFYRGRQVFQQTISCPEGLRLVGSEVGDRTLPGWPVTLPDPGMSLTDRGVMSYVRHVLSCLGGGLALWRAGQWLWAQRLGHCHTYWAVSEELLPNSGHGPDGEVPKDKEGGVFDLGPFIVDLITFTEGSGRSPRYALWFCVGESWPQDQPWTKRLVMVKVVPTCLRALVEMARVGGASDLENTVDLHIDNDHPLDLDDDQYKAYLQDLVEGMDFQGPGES
Strand | fitted relative affinity [z-score]
GACGGTATCGGGTTTCGGCACGTGCTA | 2.79
ATAAACTTAGTTTTCAATTTGTGCTAG | 2.25
TCAAGAATGCCTTTAATACTGTGCTAG | -0.41
CAGCCTCTGAGCAGCTCGGCGTGCTAG | -0.565
TCATGGTTCCCATTCCAACTGTGCTAG | 3.34
AGGAAGATCATTCTCACTGCGTGCTAG | 0.737
TCAACTCTTGCTTTTTAACTGTGCTAG | 0.52
GGGCCCTGCTGGGAAGTCAGGTGCTAG | -0.96
GACGATTTCGGGTATCGAGACGTGCTA | 1.81
TTAGATTTGGGGTATCGATTAGTGCTA | -0.161
GATGGACTGGGTCTCGGGACGTGCTAG | -0.948
TTAGGACTGCGTTTCCTTTAGTGCTAG | 1.73
GACGGTATCCTTCCCCTGACGTGCTAG | 3.05
TCGTAAGCAAAAATGATTGGGTGCTAG | -0.284
GTAGGTATCGGGTTTCGGTTAGTGCTA | 3.98
TATTGTTTCCTCTTTCACTGGTGCTAG | 4.66
GATGGTCTCCTACTGCTGACGTGCTAG | 0.61
TCAAGTTTCTTTTCTTTACTGTGCTAG | 6.37
AACTTTGGTATCTGGCATCTGTGCTAG | -0.143

Repeated from above (sample 4):
Strand | fitted relative affinity [z-score]
TCAAGAATGCCTTTAATACTGTGCTAG | -0.41
CAGCCTCTGAGCAGCTCGGCGTGCTAG | -0.565
TCATGGTTCCCATTCCAACTGTGCTAG | 3.34
AGGAAGATCATTCTCACTGCGTGCTAG | 0.737
